# Results gathered from unrelated publications.
# Numbered parts are unrelated; each lists some results of a single study. Positions count from the first letter of the parent shown.

# Study 1 — method: RNA Bind-n-Seq; molecule type: RNA; sample: in vitro; tested at: 365 nM; reference: no-protein control; direction: higher = stronger binding
# Target: RNA binding protein fox-1 homolog 2, RRM domain, GST-SBP tag (RBFOX2, Homo sapiens, UniProt O43251-10, residues 100-194)
# Notes: natural RNA segment, single round, ends assumed
# Shared flanks, not repeated: GGGAGUUCUACAGUCCGACGAUC … UGGAAUUCUCGGGUGCCAA
# Residues (chain): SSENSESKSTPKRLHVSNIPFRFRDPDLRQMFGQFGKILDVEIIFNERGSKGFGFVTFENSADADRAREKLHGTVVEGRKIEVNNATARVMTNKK
Strand,RBNS enrichment (R)
CUCUUACAGGUGGAGAAUGAGUGUUUGAUGGAUAUAGGUAAGCAUAUUUAUUUGACAGCUAUGAGGAACUAAAUUUAGAGGUUUCUCCAAUCUUAUAUGAAUAUUUUUCA,0.786
AGGCACUAAGAUAAAGUCUAGUCCAGUUCUCAUUUUAAAAGUCAACUAGCUCUAAAGCUAGUUAGUGACAAAGUUGGAUACCAAAAAUAGCCAACACUAUGACAUAAAAA,0.271
UCUGUGGGUCUGUACCAGGUACUCCAGGCCAGCCCAUGGGCCCGGGGCCUGACCCCAACACCUGCAUGCUGGGUCCAGAGCCUUCUGUUUCACCGUGCGUGGACACUGCU,3.56
UGCCGCAGCAUCUCACACCCCGAGGGCCUGAGGAGAGGGAGCUGUGGGCCACGCCUGGGAGGGGCCCAGCUGGGGUUACUGGCCCCGCAUGAGCCUCGGCCAUCUCUCCC,1.86
UGCCCUGGAUGUGGGGACCAAGGUACAAUCUAACCAUGGGCCCCCACAAGGCUUCCUGAAAUCAAAUGUUAGGUGUUGAGAGUAGCUGCAGUCUCGGGAUAACUUGUGAG,0.543
AGAGGAAAUUUCCUCACCUCCCAAUUCUGUGUAAUCAAGAAUACCUCCUUAAUUCUGAGAGCAUGAAUAUUUGACCUUAAAUCUCCAGUGACUCAGAGCUUCACCCACAA,0.779
UACUGAUCCCCCAUCUACUAUCCCCAGUAUGUAAUGGCUGAAUUAAUAUGUAAUCAACUGCAUUGUAUCUAAAGCCUUAGAACUAGUCAGGUGCUCCCUCCACCCAAUAC,0.417
AAUCGAGCUGUGGCUGAAGACCCGAGGCUCAGUUAGCAACCUCUGUUGUAGCUGUCAACCCAUUGGUUGUCUUUAGAGAGUUAAUGUUGAAACAAGGAACUCUUGGUCAG,0.291
CAGCAAGAAAACAGACCUCAAGUUUCCACUCUGACCUGCCAGGUGGCCACUGGGUAAACAAGUCCUUUUGUCUAUGUAUGACAGCAAAGCAAGGACACCUGGGCAGUAAC,0.637
GGUGGUUUUUCUUGUAAACUUGUGGACUUUUGAAACCUGUUGACUAAACAGUAAUUAAUUUAUAUUUGUGAAAAAUGCCACUGUCCUGGUGAUUUCUGAUGUAAAUAAUG,0.71
GAAGAAAACAAUUUUUUAAAAAUUCUCAUUACAUAGACGCACAAGAAUAUGUCACAUAAAGAAAAUGUGUUUAGAAUACUGGUUUUCUAUUUACGCAUGAUAUUUUCCUA,4.66
AAUGGAGGGGAAAAAGGCCACAGCAAUCUGUACUACAAUCAACUUUAUUUUGAAAUCAUGUAAAAUAAGAUAUUAGACUGUUUUUUGAAUAAAAUAUUUUUAUUGAUUGA,0.511

# Study 2 — target: CCNF, cyclin fold, Cln2 fusion (human); method: yeast growth competition, sequencing; sample: yeast; notes: strong parent motif; reference: not given; direction: higher = stronger binding
# Starting sequence: SLBP docking peptide (human); ARYKRKLLINDFG; partner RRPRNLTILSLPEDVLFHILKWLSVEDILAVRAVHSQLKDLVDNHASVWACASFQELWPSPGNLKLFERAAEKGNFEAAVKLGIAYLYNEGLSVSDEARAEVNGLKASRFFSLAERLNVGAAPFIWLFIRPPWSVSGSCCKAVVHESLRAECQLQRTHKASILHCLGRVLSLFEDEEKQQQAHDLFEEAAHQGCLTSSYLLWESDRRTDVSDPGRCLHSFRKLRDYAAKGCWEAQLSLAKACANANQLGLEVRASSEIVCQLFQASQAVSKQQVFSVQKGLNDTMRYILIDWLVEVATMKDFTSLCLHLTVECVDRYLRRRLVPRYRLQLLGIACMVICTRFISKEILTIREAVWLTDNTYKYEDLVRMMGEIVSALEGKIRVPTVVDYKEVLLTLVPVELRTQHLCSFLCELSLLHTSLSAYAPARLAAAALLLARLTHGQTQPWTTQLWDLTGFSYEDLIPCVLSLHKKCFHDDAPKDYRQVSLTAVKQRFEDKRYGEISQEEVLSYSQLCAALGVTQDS
Substitution,normalised enrichment score
N10P,2.49
L7A,0.726
I9W,2.13
R5F,1.77
L8W,2.23
R5Y,0.763
D11I,2.55
R2C,0.884
N10G,2.85
R5Q,0.751
K6H,0.515
A1L,1.63
K6Y,1.97
G13Q,0.997
K4D,0.11
K4N,1.73
K6W,2.75
Y3P,1.75
F12Y,1.81
I9E,1.17
K6S,0.987
I9G,1.79
K4H,2.29
L7W,1.44
L7G,0.736

# Study 3 — method: protein binding microarray; molecule type: double-stranded DNA, one strand shown; sample: in vitro; tested at: not given; reference: not given; direction: higher = stronger binding
# Target: Histone acetyltransferase KAT6A, both winged helices, GST fusion (KAT6A, Homo sapiens, UniProt Q92794, residues 1-181)
# Notes: 8-mer, flanks averaged, mean of 2 arrays, mostly near background
# Residues (chain): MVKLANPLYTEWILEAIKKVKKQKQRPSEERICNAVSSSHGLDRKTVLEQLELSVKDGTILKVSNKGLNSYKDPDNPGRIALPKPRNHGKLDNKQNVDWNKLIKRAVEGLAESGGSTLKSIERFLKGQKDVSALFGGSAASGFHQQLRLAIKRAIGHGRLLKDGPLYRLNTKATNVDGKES
Strand,E-score
CAACGAAC,-0.0509
GGGTGGCA,-0.164
CATCTAAA,-0.0897
CTGTAATA,0.0633
CGCGGCTC,0.334
GCGAACGA,0.0547
CTGAAGTC,0.00897
CAGACCAC,-0.158
CGTTCCGA,0.0885
GCTTCCGA,0.167
GGTTAATA,-0.0805
AGAGATCA,-0.325
TATGGAAA,-0.223
ATATATAG,0.00537
GACACTTA,0.00754
CTACCAAC,-0.0751
CCCCCGGG,0.233
CCCCGCTC,0.098
ACACCCCT,-0.209

# Study 4 — method: DHFR PCA, deep sequencing; sample: yeast; added: (+)-ABA 1.4 µM; reference: wild-type fitted maximum; direction: higher = stronger binding
# Target: ABI1, truncated, D143A, DHFR fusion (Arabidopsis thaliana)
# Notes: methotrexate growth selection, single substitutions
# Starting sequence: PYL1, truncated, DHFR fusion (Arabidopsis thaliana); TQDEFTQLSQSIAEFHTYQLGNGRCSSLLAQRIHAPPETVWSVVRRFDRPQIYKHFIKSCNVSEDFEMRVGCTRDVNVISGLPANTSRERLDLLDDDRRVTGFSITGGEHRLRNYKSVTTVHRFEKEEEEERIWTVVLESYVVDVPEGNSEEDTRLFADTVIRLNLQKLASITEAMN; partner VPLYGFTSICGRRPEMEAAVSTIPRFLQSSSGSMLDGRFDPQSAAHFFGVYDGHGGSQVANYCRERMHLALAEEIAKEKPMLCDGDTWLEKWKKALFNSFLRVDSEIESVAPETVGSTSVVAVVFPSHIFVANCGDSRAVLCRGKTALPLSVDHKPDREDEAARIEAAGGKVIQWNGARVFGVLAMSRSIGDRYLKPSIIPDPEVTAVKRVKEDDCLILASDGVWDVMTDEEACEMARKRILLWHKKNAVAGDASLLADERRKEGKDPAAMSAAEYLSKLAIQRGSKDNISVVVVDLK
Substitution,relative binding score [%]
C25M,7.31
H55N,57.2
Y53C,3.19
Q2H,65.1
V145E,-13.4
P50L,-7.58
T119K,-2.27
D3P,47.7
N61G,22.3
Q10R,59.5
S11R,30
L94S,4.27
S27T,22.5
F103L,4.43
S140E,7.81
L8V,19.4

# Study 5 — method: RNA Bind-n-Seq; molecule type: RNA; sample: in vitro; tested at: not given; reference: input RNA pool; direction: higher = stronger binding
# Target: RING finger protein unkempt homolog, zinc fingers 1-6, GST-SBP tag (UNK, Homo sapiens, UniProt Q9C0B0, residues 30-357)
# UniProt Q9C0B0, sequence (30-357, looked up): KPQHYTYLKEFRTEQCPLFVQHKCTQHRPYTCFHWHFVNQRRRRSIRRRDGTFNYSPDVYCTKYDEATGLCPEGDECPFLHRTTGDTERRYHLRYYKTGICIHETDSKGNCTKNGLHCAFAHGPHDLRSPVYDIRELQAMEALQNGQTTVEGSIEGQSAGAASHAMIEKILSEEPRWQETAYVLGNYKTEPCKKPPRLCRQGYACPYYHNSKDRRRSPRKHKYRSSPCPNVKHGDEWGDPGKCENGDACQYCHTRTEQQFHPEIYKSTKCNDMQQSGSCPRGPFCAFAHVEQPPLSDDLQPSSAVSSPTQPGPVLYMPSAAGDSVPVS
# Notes: RNA with constant flanks, human and mouse sites, ends assumed
# Shared flanks, not repeated: GGGAGUUCUACAGUCCGACGAUC … CAACAGAGGAUUGAGCAUCA
Strand,bound/input enrichment [ratio]
UGAAUUUUGUAUAGUACUAGGUUAGAACAUUGCUUAAUCCUUUUAAAAAAAAUGCAUUUACGUAAACACGAAUACUGAAAUUGUUGGAUUUUUUAACUAUAUCUGACAUAAUUUUAUUCA,5.36
UUAGUACAGGCUGAACAAAGAAAUAGAGACUUGCAGGCUGAUAACCAAAGACUGAAAUAUGAAGUGGAGGCAUUAAAGGAGAAGCUAGAGCAUCAAUAUGCACAGAGCUAUAAGCAGGUC,0.583
AAUCCAGUGGAUAUCUUGACCUACGUGGCUUGGAAAAUCAGUGGCUUUCCCAAAAACCGAGUAAUUGGAAGUGGUUGCAAUCUGGAUUCAGCGCGGUUCCGUUACCUGAUGGGAGAGAGG,0.144
UUAUGGGUGUAAGAGGUUUGCAGGGGUUUGUGGGGAGUACGUGCCCACACAUAUGUACCAUAGUCAAUAUCCACGAGCUGGCAGAGCGUCACCGAAACAAGUACCCUGGAUGUACGCCUA,0.277
AGGACAUGAGAAGAGGCCAAACUUGCUCAAGAUCAGUUUGUUUUUUCAAGUGUCAUUGCAAUUUAUUACUAUUAGGUACCAAGUGGGUGGGAAUAAUAUACAGCAUUUGUGUCAAGCUAC,0.509
CUCACCUUCCUUCGAAUUCGCUCCAAGAAAAAUGAAAUUAUGGUUGCACCAGAUAAAGACUAUUUCCUGAUUGUGAUUCAGAAUCCAACCGAAUAAGCCACUCUCUUGGCUCCCUGUGUC,0.228
GAAGAUUUUCUUAAAAAAUGGGAAAGUCCCGCUCAGAACACAGCCCACUUGGAUCAGUUUGAACGAAUCAAGACCCUCGGCACGGGCUCCUUCGGGCGGGUGAUGCUGGUGAAACACAAG,0.149
CAGCGGCAGUCUUUCCCACCAGUGUGCACCCACAACAUGCUGGACGACUCCUCAGACCCCAUCUUGACCACCAUCCGCCGAAUUGGCCUUUUCAACAGCAGUGCCGACCGUGUGAAGGUG,0.122
UUAAUUAAAGAAACAAAGCUUUCUGCUGAACCAGCUCCGGAUUUCUCUGAUUAUUCAGAAAUGGCAAAAGUUGAACAGCCAGUGCCUGAUCAUUCUGAGCUAGUUGAAGAUUCCUCACCU,0.129
GAUCCCCUUUUGUGCCACCUAUCCCCUCCCAUUUCUCCUCUGUCCUCUCCCCCUUUUCCAUCUUUCUUUUCCGUUUCCAAAGGAGCAAGCCAAAACCUCAAACCGGCGCCUCUUGGAGGC,1.35
ACAAAGAAUCGAGUGGAAAUAAAUGAUUUAGACCCUGAGGUAUUUAAAGAAAUGAUGAGAUUUGUUUACACAGGAAAAGCACCAAAUCUUGAUAAAAUGGCUGACAACUUGUUGGCAGCU,0.623

# Study 6 — target: CREB3L1, bZIP domain (human); method: DHFR protein complementation; sample: yeast; reference: wild-type JUN-FOS pair; direction: higher = stronger binding
# Notes: single substitutions, most at no-binding floor
# Starting sequence: JUN, bZIP domain (human); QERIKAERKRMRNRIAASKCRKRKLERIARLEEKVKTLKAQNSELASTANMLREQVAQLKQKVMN; partner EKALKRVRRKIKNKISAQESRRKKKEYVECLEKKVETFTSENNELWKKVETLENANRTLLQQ
Substitution,binding fitness [natural log]
T37Q,-1.37
I28H,-1.36
K39P,-1.52
S43V,-1.43
A49H,-1.35
V35E,-1.34
V56W,-1.41
A29Y,-1.53
K36E,-1.28
E54G,-1.35
K34F,-1.4
L45K,-1.24
L52S,-1.51
L45S,-1.47
A40W,-1.52
L52M,-1.47
N42W,-1.49
T37L,-1.27

# Other studies, line by line
Substance,target,test,system,conditions,scale,endpoint,value
"PhoQ, residues 284 288 289 292 302 303 SSCCRF","PhoP, residues 12 14 15 18 19 STHWV (Escherichia coli, UniProt P23836)","Sort-seq, item: YFP reporter",E. coli,"PhoQ-PhoP variant library, added: 10 µM Mg2+","reference: high Mg2+ state, higher = stronger signaling",fold induction,13.5

# For quick reference, copied from above (study 2):
Substitution,normalised enrichment score
R5Y,0.763
D11I,2.55
R2C,0.884
N10G,2.85
R5Q,0.751
K6H,0.515
A1L,1.63
K6Y,1.97
G13Q,0.997
K4D,0.11
K4N,1.73
K6W,2.75
Y3P,1.75
F12Y,1.81
I9E,1.17
